Published values of several laboratories.
Protocols differ between the studies behind these lines. Several values in a cell are separate wells, animals, samples, runs or records.
Target: Beta-1 adrenergic receptor (ADRB1, Homo sapiens, UniProt P08588)
Chain of UniProt P08588 (whole entry, looked up): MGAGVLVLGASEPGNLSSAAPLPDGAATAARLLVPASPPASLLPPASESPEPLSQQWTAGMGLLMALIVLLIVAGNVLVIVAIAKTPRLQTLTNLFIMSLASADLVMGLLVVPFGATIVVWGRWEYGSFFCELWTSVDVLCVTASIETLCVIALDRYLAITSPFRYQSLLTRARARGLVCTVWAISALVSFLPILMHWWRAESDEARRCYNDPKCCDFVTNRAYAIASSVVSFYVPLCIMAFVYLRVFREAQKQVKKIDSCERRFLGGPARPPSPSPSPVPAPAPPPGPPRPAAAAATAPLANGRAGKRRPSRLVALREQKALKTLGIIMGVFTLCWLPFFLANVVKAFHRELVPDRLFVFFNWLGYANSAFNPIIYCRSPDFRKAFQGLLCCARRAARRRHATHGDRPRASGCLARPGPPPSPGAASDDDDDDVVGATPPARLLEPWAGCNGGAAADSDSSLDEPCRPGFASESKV

N[C@@H](Cc1ccccc1)C(=O)O
cAMP level (HEK293 expressing β1AR; 100 µM): 22.7 pmol/mg protein and 22.2 pmol/mg protein and 23.9 pmol/mg protein and 18.2 pmol/mg protein

O=C(NO)c1ccc(CN2CCCCc3ccccc32)c(F)c1
inhibition (radioligand binding, radioligand displacement; 10 µM, mean of replicates): 32.7%

COc1cc(Cl)c(C(=O)N[C@@H](CN[C@H]2CC[C@@H](N)CC2)Cc2ccc(C#N)cc2)cc1-c1ccc(CN[C@H](C)c2ccc(C)cc2)o1
inhibition (agonist response, antagonist; 1; 10 µM): -7%

CCN1/C(=C/C(C)=O)Sc2ccc(F)cc21
inhibition (10 µM): 2.39%

CC(C)NCC(O)COc1ccc(CC(N)=O)cc1 (stereo not drawn)
Hill coefficient (radioligand binding, agonist; reference compound): 0.9

CN1CCC(CNc2ccc3ncc(-c4cccc(OC(F)(F)F)c4)n3n2)CC1
response (cAMP, antagonist, cell-based GPCR; 10 µM; relative to: control): > 50%

CC(C)NCC(O)COc1ccc(CC(N)=O)cc1 (stereo not drawn)
Hill coefficient (binding, agonist, radioligand binding): 0.8

OCCCN1CC[C@@H]2C[C@H]1c1cc(-c3ccc(C(F)(F)F)cc3)ccc12
inhibition (radioligand binding, PDSP competition binding; 10 µM): < 50%

CN(C(=O)n1cnc(-c2ccc[n+]([O-])c2)c1)C1CCCCC1
inhibition (10 µM): 10.7%

For quick reference, copied from above:
CC(C)NCC(O)COc1ccc(CC(N)=O)cc1 (stereo not drawn)
Hill coefficient (radioligand binding, agonist; reference compound): 0.9
